Experimental data collected from several papers.
Lines come from different studies, so protocols differ. ± gives the spread as reported.

SMILES | test | test system | setting | how to read | measurement | result
C#Cc1ccc2c(c1)C(c1ccccn1)=NCc1c(-c3cnco3)ncn1-2.Cl | thermodynamic equilibrium, UV | tetrahydrofuran | 24 h, 25 °C | – | solubility | 336 µg/mL
Cc1ncc2n1-c1ccc(Cl)cc1C(c1ccccc1F)=NC2 | – | wild-type mice, plasma | intravenous, 0.3 mg/kg, vehicle pretreatment 3 days | – | MRT | 36.4 ± 3.6 min
O=C1c2c(O)c(=O)ccn2N([C@@H]2c3ccccc3SCc3c2ccc(F)c3F)[C@@H]2COCCN12 | – | BALB/c mice, plasma | oral, 50 mg/kg baloxavir marboxil, 4 h | – | plasma concentration | 217 ng/mL
CCCCCn1cc(C(=O)Nc2cccc3ccccc23)c2ccccc21 | – | rat liver microsomes | scaled to whole liver | – | scaled intrinsic clearance | 564 mL/min/kg
CCCCCCCCCCC(=O)O[C@H]1CC[C@H]2[C@H]3[C@H]([C@@H](C)C[C@]12C)[C@H]1CCC(=O)C=C1C[C@H]3C | – | human serum | 300 ng/mL, NaF 0.00 mg/mL | – | DMA level | not detected
CCN(CC)C(=O)[C@@H]1C=C2c3cccc4[nH]cc(c34)C[C@H]2N(C)C1 | refers to: hot flashes | healthy volunteers | dose not given, 0 to 12 h | relative to: placebo, direction not given | List of Complaints score | 2
CN/C(=N\[N+](=O)[O-])NCc1cnc(Cl)s1 | – | soil | 0 days, nominal 0.37 | – | concentration | 0.24 mg/kg dry soil
COc1cc2c(Oc3ccc4[nH]c(C)cc4c3F)ccnc2cc1OCC1(N)CC1 | – | paediatric recurrent refractory sarcoma | 10 mg | – | grade 1 or 2 influenza-like symptoms | 25%
COc1cccc(C2(O)CCCCC2CN(C)C)c1 (stereo not shown) | joint PK model | human, whole blood | oral, dose not given, two-compartment metabolite model | – | peripheral volume | 0.213 L
C[C@H]1CN(C(=O)CC#N)[C@]12CCN(c1ncnc3[nH]ccc13)C2 | – | human | oral, 12 mg single dose | – | participants with influenza-like illness | 0%

A few entries again:
SMILES | test | test system | setting | how to read | measurement | result
C[C@H]1CN(C(=O)CC#N)[C@]12CCN(c1ncnc3[nH]ccc13)C2 | – | human | oral, 12 mg single dose | – | participants with influenza-like illness | 0%
